Published values collected from several papers.
Numbered parts are unrelated; each lists some results of a single study.

Series 1
Target: Interferon regulatory factor 3, full length, phosphomimetic (IRF3, Homo sapiens, UniProt Q14653, residues 1-427, S386D/S396D/S398D/S402D/T404D/S405D)
Chain of UniProt Q14653 (whole entry, unmodified, looked up): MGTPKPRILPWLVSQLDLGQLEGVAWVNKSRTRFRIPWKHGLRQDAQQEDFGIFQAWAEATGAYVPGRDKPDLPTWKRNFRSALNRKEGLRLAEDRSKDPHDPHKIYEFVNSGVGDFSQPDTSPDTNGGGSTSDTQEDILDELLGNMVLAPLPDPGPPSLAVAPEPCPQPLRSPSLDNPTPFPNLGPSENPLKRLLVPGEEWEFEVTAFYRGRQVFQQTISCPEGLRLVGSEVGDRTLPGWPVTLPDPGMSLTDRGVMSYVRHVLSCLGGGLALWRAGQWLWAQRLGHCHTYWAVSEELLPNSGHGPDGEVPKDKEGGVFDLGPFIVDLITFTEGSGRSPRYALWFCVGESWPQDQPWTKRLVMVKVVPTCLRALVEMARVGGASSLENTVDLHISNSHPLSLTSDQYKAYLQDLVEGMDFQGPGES
Method: protein-binding microarray
Molecule type: double-stranded DNA, one strand shown
Sample: in vitro
Tested at: 2540 nM top
Notes: 60-bp whole probe
Together with: salmon DNA 0.4 mg/ml
Relative to: random background probes
Reading: higher = stronger binding
Endpoint: fitted relative affinity
Shared flanks, not repeated: GCCTAGCAC … GTCTTGATTCGCTTGACGCTGCTG
TTAGCACTGGACTTTCGGTTAGTGCTA: 0.978 z-score
TCATTTTTTTTTTCTGAACTGTGCTAG: 1.87 z-score
GACGATATCCGGTTTCGAGACGTGCTA: 2.81 z-score
GACGGTATAGGTCTCGGGACGTGCTAG: -0.347 z-score
CTCATTCTCTGCTTGCGTCTGTGCTAG: 2 z-score
GACGAACTTGGGTTTCGAGACGTGCTA: 0.669 z-score
TTAGATATCGGGTTTCGGTTAGTGCTA: 3 z-score
TCATATTTATTTTTACAACTGTGCTAG: 1.32 z-score
GTAGGTTTCCTACTGCTTTAGTGCTAG: 4.87 z-score
TTATAACTGAGTCTCGATTAGTGCTAG: 0.0383 z-score
GACGGTTTCCTTTCCCTGAAGTGCTAG: 10.5 z-score
CTTTTTATGCTTTCTTTAACTGTGCTA: 3.86 z-score
AAATGTTTTGTTTTTCATTAGTGCTAG: 3.24 z-score
CACGGACTGGACTATCGGGACGTGCTA: -0.444 z-score
GAGATCATCCGTTTCTTCTAGTGCTAG: 1.21 z-score
CTAGGACTGGGTCTCGGTTAGTGCTAG: -0.732 z-score
TTAGGTATCCTCTTCCTTTAGTGCTAG: 2.39 z-score
TTAGATCTCAGTATCGCTTAGTGCTAG: 0.886 z-score

Series 2
Target: Centromere-binding protein 1, full length, His-tagged (CBF1, Saccharomyces cerevisiae, UniProt P17106, residues 1-351)
Chain of UniProt P17106 (whole entry, looked up): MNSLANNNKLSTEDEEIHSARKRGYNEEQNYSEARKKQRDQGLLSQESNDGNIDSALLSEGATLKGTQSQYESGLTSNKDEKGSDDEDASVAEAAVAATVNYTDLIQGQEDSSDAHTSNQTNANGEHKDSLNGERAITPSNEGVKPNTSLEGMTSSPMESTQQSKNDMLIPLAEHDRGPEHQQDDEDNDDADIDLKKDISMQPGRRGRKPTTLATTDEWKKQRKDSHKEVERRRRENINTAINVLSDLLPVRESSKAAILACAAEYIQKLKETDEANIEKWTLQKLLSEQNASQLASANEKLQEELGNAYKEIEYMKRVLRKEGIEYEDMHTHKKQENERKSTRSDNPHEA
Method: competition protein-binding microarray
Molecule type: double-stranded DNA, one strand shown
Sample: in vitro
Tested at: 2 µM
Notes: whole 60-bp probe, lowest competitor level
Together with: Pho4 competitor, 0.05 µM
Reading: higher = stronger binding
Endpoint: fluorescence intensity
Shared flanks, not repeated: … GTCTTGATTCGCTTGACGCTGCTG
CATATTTATGACTGTCACATGATATTGAGGTTACTC: 1790 a.u.
AAAGCGGTAATTTGACATGTGGGTGCAGATATCTAT: 101 a.u.
CATACCCAACCTTGACACGTGGGTGAAGATATTTGT: 844 a.u.
CGTCCTAGTGATTGTTTCGTGGGTGCCATGAGGAAG: 90.3 a.u.
GCTCAAGCTCAAACACACGTGCAAACAAACCCCCAA: 1620 a.u.
CGTCCTAGTGATTTGCACGTGTTTTCCATGAGGAAG: 1940 a.u.
TGCGCAACAACTTTTCACGTGATCTTATGTCTAGAA: 7320 a.u.
GTCTTGTCTCATTGCGGAGTGGGTGTCCCCACTTCA: 67 a.u.
CTTCTGTAAATTTGTGCTGTGGGTGGACGCGCCCCG: 89.8 a.u.
AATTTTTTTCTTCGGCACGTCATACACCTTGTAATG: 74.4 a.u.
GTCTTGTCTCATTGTTCTGTGGGTGTCCCCACTTCA: 70.9 a.u.
TTCAGGGTTGTTCATCACAGCAATAAAAGTATCAAC: 76.7 a.u.
CGGGGTTAAGTTTGGATAGTGGGTGGCTTGCAGCAG: 67.1 a.u.
CTTCTGTAAATTTGCTTTGTGGGTGGACGCGCCCCG: 67.9 a.u.
TTTCCAGGCCCAGCGAGCGTGCTTTGCAAGAGGATC: 67.4 a.u.
CTAACGAAGGTTTGTGCGGTGGGTGACAAGCCAAGT: 62.4 a.u.
CTGATTTGCCTGTACCACATGTCATAAAAACTGCGG: 237 a.u.
AGCTACCGATTCCATCACGCTTCCTGGTACGGGTGC: 88.9 a.u.
AAATTACTAAGTTTTCACGTGTTATACCCCGTATGA: 1120 a.u.

Series 3
Target: Ras GTPase-activating protein-binding protein 1, full length (G3BP1, Homo sapiens, UniProt Q13283)
Chain of UniProt Q13283 (whole entry, looked up): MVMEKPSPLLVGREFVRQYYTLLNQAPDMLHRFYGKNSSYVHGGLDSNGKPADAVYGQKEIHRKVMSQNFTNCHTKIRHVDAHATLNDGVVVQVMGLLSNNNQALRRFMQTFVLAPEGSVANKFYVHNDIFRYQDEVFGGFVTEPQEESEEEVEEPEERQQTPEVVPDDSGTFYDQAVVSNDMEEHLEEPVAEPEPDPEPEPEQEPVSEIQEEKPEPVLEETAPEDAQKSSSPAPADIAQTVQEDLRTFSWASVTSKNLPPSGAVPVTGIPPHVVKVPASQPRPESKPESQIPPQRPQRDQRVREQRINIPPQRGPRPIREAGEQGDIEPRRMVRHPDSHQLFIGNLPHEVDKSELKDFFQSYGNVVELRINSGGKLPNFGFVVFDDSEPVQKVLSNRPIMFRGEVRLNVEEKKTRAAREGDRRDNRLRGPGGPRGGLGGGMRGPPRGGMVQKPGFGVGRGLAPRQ
Method: RNA Bind-n-Seq
Molecule type: RNA
Sample: in vitro
Tested at: 200 nM
Notes: whole 134-nt RNA, ends assumed
Together with: 150 mM LiCl
Relative to: input library
Reading: higher = stronger binding
Endpoint: log2 enrichment
Each molecule: 7-deaza-guanosine replaces G
Shared flanks, not repeated: GGGAGUUCUACAGUCCGACGAUC … UGGAAUUCUCGGGUGUCAAGG
UCCUGUGCUACACAUCGUAUGUACCGAAUCGGGCCCCCCGGGCCCCCCGGCCCCCCGGGAAAGUAUUAUGUUACGCCGUUCGGAUCUGCA: -0.526
UGGCCCUGGUGGCAUGCGGGGAGGAAGAGGUGGCCUCAUGGAUCCUGGUGGUCCCGGUGGAAUGUUCAGAGGUGGCCGUGGUGGAGACAG: -0.337
ACCAUGCAGGUGGGCAUCUUUAAAAAGUGGGGCAAGGGGGGGAUAGGGAGGGGGGUAACACUUUGGGAACAGGUGGUCCCAGGUCGUUUC: 0.437
CCUCAAGUCCUGUGCUACACAUCGUAUGUACCGAAUCGGGGCGGCGGCGGGGAAAGUAUUAUGUUACGCCGUUCGGAUCUGCACUUCCAG: 0.042
CCUCAAGUCCUGUGCUACACAUCGUAUGUACCGAAUCGGUGGUGGUUUUUGGAAAGUAUUAUGUUACGCCGUUCGGAUCUGCACUUCCAG: 0.0575
CUGUGCUACACAUCGUAUGUACCGAAUCGGGGAAAAAAAGGGGUUUUUGGGGUUUUUGGGGAAAGUAUUAUGUUACGCCGUUCGGAUCUG: -1.33
CAAGUCCUGUGCUACACAUCGUAUGUACCGAAUCGGUUUUGGUUUUGGGUUUUGGGAAAGUAUUAUGUUACGCCGUUCGGAUCUGCACUU: -1.07
CCUGUGCUACACAUCGUAUGUACCGAAUCGGGGCCCCCCCGGGCCCCCCCGGCCCCCCCGGAAAGUAUUAUGUUACGCCGUUCGGAUCUG: 0.761

Series 4
Target: RNA binding protein fox-1 homolog 2, RRM domain, GST-SBP tag (RBFOX2, Homo sapiens, UniProt O43251-10, residues 100-194)
Method: RNA Bind-n-Seq
Molecule type: RNA
Sample: in vitro
Tested at: 365 nM
Notes: natural RNA segment, single round, ends assumed
Relative to: no-protein control
Reading: higher = stronger binding
Endpoint: RBNS enrichment (R)
Shared flanks, not repeated: GGGAGUUCUACAGUCCGACGAUC … UGGAAUUCUCGGGUGCCAA
AGCAGCGAGCAUCCAAGGGUUGGCAGGGACAGUGUUACAGGCUCUUUAUUUUGCUGCUUUGAUUUUGCUUCUGUCUGCCCCUCACAUGUGCAGUGGCAGGCGUGUUUGAG: 1.87
UGAGAGCCAUGCUGUCAGGAGCAAGCUUGCUGCUCCUGUGCUGCCCUGGCCCUGGCCUUGCUUGCCCAUGGUGUGUGUGUCCAGAGGUGUGUGUGAGGCUGCCAGAACAA: 0.694
AAAAUGAUGAAACGGAAAUCGGUCCUGUCGUCUUGUUAGCAUGAUUCAUGUAUUUAUAUAGAUCCGAUUAUUUUAAUUUUUGCUUUCUUUGUGUAAAUUUUAUGUACAGA: 6.78
UGGUGUGGUUACAGGGUCCCCUGCCUGCCUCCAGCCUCCGUGUGCUCCAGGGUUGUGAGCAGAGCAGGAAGGUCAGGUGAGAGUGGCUGUAGGAGGUCCUCCAGCCCGGG: 1.61
GCCCUCAGUGAACUACCCAGCAGGGCUGAUCGCAUUGAGGUCAUUCAGAACUUGUGGCGUAAGACAAGCCAUUUUCUGGUAUUGGUGGAGAACGGAACCAAAGCUGGGCA: 0.552
UUGGCCCCAAGCCUGGGACUUGAGCCAUCGUAACUCACUAACAGGGAGAAUUAGCUAGUAGCAAUGUGCCUUGAUGAAGAUUUCCUGCAGGCAGCAAAACACCAAAUCAC: 0.383
UCUGUAGUGUUUGUGGGGAUAGGUUCCAUGCAAGAACACCUUCCUCCUCCAUCCCCCACUUCACCCCAUCCCAUACCAGUUCCAUCCAGGGUCUGCUUAACUGCCAAGAG: 0.995
GCACUCCAUAGUCUCAAACUGUCCCCCUUAUGACCAACAGCACAUUUGUGAAGAGGUUCGCAGGGAUAAGGGGUGCACUUUAUAGCUAUGGAAACAUGAGAUUCUCCUCU: 0.435

Some of these lines once more (series 2):
CATATTTATGACTGTCACATGATATTGAGGTTACTC: 1790 a.u.
AAAGCGGTAATTTGACATGTGGGTGCAGATATCTAT: 101 a.u.
CATACCCAACCTTGACACGTGGGTGAAGATATTTGT: 844 a.u.
CGTCCTAGTGATTGTTTCGTGGGTGCCATGAGGAAG: 90.3 a.u.
